Measurements of several laboratories.
Each numbered part is a random draw from the data of one study; scales do not carry over between parts.
Chain of UniProt P17106 (whole entry, looked up): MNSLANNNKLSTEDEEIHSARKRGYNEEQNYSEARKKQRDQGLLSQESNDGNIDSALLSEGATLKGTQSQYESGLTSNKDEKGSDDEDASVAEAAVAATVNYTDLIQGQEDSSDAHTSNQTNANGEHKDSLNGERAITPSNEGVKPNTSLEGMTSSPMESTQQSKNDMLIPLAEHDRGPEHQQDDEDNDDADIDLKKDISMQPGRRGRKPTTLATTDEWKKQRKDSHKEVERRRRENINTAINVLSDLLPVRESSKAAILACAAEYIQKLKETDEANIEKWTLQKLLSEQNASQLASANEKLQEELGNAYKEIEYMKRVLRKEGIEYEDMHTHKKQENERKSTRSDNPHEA

Study 1
Target: Histone acetyltransferase KAT6A, winged helix 2, GST fusion (KAT6A, Homo sapiens, UniProt Q92794, residues 85-181)
Technique: protein binding microarray
Molecule type: double-stranded DNA, one strand shown
Matrix: in vitro
Tested at: not given
Setting: 8-mer, flanks averaged, mean of 2 arrays, mostly near background
Baseline: not given
Reading: higher = stronger binding
Measurement: E-score
Construct (chain): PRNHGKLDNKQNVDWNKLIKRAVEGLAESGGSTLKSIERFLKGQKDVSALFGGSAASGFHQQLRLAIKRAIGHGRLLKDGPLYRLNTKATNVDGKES
ACCAAATA: 0.111
AGGCTCGG: 0.0231
AAGGCGTG: 0.0309
ATGAGGCA: 0.0144

Study 2
Target: Interferon regulatory factor 3, full length, phosphomimetic (IRF3, Homo sapiens, UniProt Q14653, residues 1-427, S386D/S396D/S398D/S402D/T404D/S405D)
Technique: protein-binding microarray
Molecule type: double-stranded DNA, one strand shown
Matrix: in vitro
Tested at: 2540 nM top
Setting: 60-bp whole probe
Added: salmon DNA 0.4 mg/ml
Baseline: random background probes
Reading: higher = stronger binding
Measurement: fitted relative affinity
Construct (chain): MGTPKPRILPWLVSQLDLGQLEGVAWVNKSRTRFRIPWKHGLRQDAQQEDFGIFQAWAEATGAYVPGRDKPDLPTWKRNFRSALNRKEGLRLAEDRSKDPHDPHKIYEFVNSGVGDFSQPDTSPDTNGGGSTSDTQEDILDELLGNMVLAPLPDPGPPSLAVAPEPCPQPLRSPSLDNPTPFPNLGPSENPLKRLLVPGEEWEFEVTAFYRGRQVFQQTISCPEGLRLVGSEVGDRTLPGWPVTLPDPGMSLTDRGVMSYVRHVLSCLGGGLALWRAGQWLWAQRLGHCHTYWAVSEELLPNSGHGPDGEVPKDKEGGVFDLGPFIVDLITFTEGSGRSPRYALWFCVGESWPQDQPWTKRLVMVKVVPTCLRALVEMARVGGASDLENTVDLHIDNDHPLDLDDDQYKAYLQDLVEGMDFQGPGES
GCCTAGCACTTAGGACTGGAATTTCGGTTAGTGCTAGTCTTGATTCGCTTGACGCTGCTG: 0.648 z-score
GCCTAGCACTTAGGTTTCGGTCTCGCTTAGTGCTAGGTCTTGATTCGCTTGACGCTGCTG: 8.76 z-score
GCCTAGCACTGGTCTCTAGTTAGAGAACTGTGCTAGGTCTTGATTCGCTTGACGCTGCTG: 0.196 z-score
GCCTAGCACTCATATACCTGTATATCACTGTGCTAGGTCTTGATTCGCTTGACGCTGCTG: 0.569 z-score

Other studies, line by line
GAACAACTGGTTTATATCGTGAGTTCTTGGCAGTAGGTCTTGATTCGCTTGACGCTGCTG  fluorescence intensity (Centromere-binding protein 1, full length, N-terminal tag (CBF1, Saccharomyces cerevisiae, UniProt P17106, residues 1-351); protein-binding microarray; double-stranded DNA, one strand shown, in vitro; 0.8 µM, whole 60-bp probe, no competitor; higher = stronger binding): 569 a.u.
PhoQ, residues 284 288 289 292 302 303 SNSSNI  fold induction (PhoP, residues 12 14 15 18 19 SPWRL (Escherichia coli, UniProt P23836); Sort-seq, measured: YFP reporter; E. coli; PhoQ-PhoP variant library, added: 10 µM Mg2+; baseline: high Mg2+ state, higher = stronger signaling): 1.32

Excerpt of the above (study 2):
GCCTAGCACTTAGGTTTCGGTCTCGCTTAGTGCTAGGTCTTGATTCGCTTGACGCTGCTG: 8.76 z-score
